Earlier results as cited in several papers.
UniProt Q7KZI7, sequence (whole entry, looked up): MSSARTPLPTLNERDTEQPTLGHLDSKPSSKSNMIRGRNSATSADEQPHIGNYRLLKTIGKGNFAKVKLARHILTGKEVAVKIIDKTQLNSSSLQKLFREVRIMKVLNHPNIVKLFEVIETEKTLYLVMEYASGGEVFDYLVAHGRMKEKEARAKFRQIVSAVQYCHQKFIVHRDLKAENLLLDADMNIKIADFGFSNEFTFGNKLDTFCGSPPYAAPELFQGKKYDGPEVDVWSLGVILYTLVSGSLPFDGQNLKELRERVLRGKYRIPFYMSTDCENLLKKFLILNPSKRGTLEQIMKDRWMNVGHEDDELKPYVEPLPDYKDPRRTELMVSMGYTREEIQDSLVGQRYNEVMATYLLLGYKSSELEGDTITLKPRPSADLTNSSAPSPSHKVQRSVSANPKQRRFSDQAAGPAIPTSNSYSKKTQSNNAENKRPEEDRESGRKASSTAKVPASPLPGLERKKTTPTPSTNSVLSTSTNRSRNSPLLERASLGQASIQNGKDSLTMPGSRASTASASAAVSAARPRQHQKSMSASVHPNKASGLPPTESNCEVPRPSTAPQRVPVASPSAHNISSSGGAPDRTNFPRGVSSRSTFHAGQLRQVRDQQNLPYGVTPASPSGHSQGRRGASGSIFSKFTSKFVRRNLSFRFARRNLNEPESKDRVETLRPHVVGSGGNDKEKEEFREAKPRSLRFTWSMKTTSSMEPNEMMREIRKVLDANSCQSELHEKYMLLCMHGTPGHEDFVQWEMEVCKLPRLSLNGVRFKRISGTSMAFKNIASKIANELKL

Structure (SMILES)	tested on	test	system	conditions	scale	endpoint	result
NC(=O)N1c2ccccc2C=Cc2ccccc21						solubility	< 0.2 mg/mL
NC(=O)N1c2ccccc2C=Cc2ccccc21			FaSSIF	literature value		solubility	0.236 mg/mL
Sc1ncnc2nc[nH]c12			water			solubility	< 1 mg/mL
Cc1cccc(Nc2ccccc2C(=O)O)c1C			FaSSIF	literature value		solubility	0.06 mg/mL
CC(C)C[C@H](NC(=O)[C@H](CCc1ccccc1)NC(=O)CN1CCOCC1)C(=O)N[C@@H](Cc1ccccc1)C(=O)N[C@@H](CC(C)C)C(=O)[C@@]1(C)CO1			PBS			solubility	~10 µM
Nc1nc2c(ncn2COCCO)c(=O)[nH]1			water	2		solubility	1.6 mg/mL
O=c1c(-c2ccc(O)cc2)coc2cc(O)cc(O)c12			water			solubility	< 1 mg/mL
Nc1cc(C(F)(F)F)c(-c2nc(N3CCOCC3)nc(N3CCOCC3)n2)cn1	MARK2 (Homo sapiens, UniProt Q7KZI7)	enzyme activity		10 µM	relative to: untreated	remaining activity	87%
Cc1ccc(Nc2nccc(N(C)c3ccc4c(C)n(C)nc4c3)n2)cc1S(N)(=O)=O.Cl			FaSSIF	literature value		solubility	0.0012 mg/mL
C[C@@H](Oc1ccc(S(C)(=O)=O)cc1C(=O)N1C[C@@H]2C[C@]2(c2cc(C(F)(F)F)on2)C1)C(F)(F)F			FaSSIF			solubility	0.0185 mg/mL
C=CC(=O)Nc1cc(Nc2nccc(-c3cn(C)c4ccccc34)n2)c(OCC(F)(F)F)nc1N(C)CCN(C)C				pH 5		solubility	3.36 mg/mL
O=C(O)c1cc(/N=N/c2ccc(S(=O)(=O)Nc3ccccn3)cc2)ccc1O			water			solubility	< 1 mg/mL
CCC(C)n1ncn(-c2ccc(N3CCN(c4ccc(OCC5COC(Cn6cncn6)(c6ccc(Cl)cc6Cl)O5)cc4)CC3)cc2)c1=O (stereo not drawn)				pH 6.50		solubility	0.008 mg/mL
CC(=O)[C@H]1CC[C@H]2[C@@H]3CCC4=CC(=O)CC[C@]4(C)[C@H]3CC[C@]12C			FaSSIF	literature value		solubility	0.0255 mg/mL
CCN(C(=O)c1c(O)c2c(Cl)cccc2n(C)c1=O)c1ccccc1			water			solubility	< 1 mg/mL

A few entries again:
Structure (SMILES)	tested on	test	system	conditions	scale	endpoint	result
Cc1cccc(Nc2ccccc2C(=O)O)c1C			FaSSIF	literature value		solubility	0.06 mg/mL
